Measurements from different studies.
A part holds a random share of what one study measured. Several values in a cell are separate wells, animals, samples, runs or records.
Sequence of UniProt Q13557 (whole entry, looked up): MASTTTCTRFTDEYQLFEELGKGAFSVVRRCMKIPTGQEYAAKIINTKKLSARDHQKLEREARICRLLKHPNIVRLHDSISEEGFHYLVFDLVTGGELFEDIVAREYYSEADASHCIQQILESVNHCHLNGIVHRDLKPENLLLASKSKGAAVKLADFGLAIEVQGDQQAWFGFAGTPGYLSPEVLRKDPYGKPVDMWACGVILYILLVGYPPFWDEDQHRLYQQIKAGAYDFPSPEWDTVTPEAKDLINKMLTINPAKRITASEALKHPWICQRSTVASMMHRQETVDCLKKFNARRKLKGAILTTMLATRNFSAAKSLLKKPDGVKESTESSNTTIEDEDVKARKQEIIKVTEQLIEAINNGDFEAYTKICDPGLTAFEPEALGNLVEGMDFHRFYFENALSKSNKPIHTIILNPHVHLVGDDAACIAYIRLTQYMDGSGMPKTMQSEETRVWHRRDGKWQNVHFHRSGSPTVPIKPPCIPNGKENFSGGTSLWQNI
Sequence of UniProt P51957 (whole entry, looked up): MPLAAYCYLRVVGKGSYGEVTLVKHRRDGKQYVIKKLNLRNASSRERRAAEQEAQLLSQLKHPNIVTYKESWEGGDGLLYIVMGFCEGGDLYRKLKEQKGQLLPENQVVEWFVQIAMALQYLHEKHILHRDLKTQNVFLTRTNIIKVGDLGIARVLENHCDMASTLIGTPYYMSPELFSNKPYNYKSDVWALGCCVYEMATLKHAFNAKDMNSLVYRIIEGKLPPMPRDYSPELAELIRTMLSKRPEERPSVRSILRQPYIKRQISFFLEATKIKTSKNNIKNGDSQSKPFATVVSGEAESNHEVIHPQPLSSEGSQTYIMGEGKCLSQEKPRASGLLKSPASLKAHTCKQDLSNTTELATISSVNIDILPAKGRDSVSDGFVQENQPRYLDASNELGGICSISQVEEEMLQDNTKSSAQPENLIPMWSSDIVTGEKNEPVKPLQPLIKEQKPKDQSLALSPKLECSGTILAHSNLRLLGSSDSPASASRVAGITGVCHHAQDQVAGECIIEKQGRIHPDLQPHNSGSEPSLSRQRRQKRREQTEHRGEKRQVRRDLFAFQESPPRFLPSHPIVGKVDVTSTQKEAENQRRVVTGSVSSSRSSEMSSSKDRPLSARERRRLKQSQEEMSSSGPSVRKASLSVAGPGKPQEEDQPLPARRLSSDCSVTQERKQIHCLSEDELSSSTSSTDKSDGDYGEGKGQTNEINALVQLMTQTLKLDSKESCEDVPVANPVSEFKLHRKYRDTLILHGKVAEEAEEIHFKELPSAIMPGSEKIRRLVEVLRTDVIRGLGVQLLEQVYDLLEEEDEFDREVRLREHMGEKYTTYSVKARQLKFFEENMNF
Sequence of UniProt Q15831 (whole entry, looked up): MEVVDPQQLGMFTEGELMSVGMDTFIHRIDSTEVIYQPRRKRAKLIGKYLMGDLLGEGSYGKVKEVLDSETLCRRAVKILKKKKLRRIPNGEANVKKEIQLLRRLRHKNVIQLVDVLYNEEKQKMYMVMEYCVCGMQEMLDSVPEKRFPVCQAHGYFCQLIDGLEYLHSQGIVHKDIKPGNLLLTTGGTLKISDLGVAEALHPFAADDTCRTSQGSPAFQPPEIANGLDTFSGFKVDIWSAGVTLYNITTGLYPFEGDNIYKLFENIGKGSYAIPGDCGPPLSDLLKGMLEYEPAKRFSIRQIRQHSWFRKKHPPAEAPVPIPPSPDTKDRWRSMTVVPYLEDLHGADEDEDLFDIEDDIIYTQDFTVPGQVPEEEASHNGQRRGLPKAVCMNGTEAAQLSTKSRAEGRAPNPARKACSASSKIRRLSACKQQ
Sequence of UniProt P36897 (whole entry, looked up): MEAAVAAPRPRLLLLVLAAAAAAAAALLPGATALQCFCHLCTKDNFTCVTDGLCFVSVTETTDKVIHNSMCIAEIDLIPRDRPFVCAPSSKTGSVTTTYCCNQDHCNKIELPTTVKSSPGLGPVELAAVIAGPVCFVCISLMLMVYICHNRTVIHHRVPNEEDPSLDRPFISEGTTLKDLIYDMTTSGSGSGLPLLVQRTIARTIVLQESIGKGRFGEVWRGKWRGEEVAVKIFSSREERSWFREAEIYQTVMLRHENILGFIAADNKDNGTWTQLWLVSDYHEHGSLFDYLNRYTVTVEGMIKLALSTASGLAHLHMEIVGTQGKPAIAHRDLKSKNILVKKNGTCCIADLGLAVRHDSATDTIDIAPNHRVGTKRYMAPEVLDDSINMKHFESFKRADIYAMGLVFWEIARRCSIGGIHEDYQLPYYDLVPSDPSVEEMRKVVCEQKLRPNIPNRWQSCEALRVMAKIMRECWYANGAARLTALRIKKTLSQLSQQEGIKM
Sequence of UniProt Q9H422 (whole entry, looked up): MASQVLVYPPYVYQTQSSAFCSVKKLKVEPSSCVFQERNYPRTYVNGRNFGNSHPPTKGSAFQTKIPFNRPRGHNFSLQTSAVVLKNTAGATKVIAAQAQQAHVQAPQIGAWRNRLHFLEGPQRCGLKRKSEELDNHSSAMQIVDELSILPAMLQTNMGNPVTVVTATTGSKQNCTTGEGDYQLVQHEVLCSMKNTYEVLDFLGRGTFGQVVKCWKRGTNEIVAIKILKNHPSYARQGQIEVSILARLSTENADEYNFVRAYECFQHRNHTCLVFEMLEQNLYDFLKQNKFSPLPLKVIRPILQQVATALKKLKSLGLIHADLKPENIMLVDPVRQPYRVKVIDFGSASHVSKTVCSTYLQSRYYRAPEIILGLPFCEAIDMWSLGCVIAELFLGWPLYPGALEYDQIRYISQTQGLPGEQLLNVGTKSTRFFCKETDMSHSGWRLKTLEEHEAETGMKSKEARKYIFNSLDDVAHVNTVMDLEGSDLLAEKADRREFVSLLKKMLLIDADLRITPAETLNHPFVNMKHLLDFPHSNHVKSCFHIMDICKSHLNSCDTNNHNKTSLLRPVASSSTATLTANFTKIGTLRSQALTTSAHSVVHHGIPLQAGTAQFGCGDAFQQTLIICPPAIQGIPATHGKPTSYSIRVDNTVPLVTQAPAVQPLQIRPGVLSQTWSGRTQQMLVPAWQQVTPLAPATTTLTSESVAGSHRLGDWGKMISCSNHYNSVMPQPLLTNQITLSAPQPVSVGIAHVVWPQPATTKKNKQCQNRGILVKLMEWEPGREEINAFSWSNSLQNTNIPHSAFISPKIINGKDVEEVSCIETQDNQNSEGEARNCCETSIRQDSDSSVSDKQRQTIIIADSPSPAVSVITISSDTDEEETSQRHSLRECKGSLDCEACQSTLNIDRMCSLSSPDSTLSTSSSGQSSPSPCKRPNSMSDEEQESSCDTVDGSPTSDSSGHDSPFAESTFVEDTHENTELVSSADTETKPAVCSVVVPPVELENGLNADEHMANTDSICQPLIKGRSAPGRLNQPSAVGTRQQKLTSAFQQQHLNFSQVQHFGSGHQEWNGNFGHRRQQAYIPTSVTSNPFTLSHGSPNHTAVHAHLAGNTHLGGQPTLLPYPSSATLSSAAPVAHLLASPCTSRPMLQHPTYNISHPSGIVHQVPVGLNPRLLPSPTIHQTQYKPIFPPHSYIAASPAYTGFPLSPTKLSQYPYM
Sequence of UniProt Q86Y07 (whole entry, looked up): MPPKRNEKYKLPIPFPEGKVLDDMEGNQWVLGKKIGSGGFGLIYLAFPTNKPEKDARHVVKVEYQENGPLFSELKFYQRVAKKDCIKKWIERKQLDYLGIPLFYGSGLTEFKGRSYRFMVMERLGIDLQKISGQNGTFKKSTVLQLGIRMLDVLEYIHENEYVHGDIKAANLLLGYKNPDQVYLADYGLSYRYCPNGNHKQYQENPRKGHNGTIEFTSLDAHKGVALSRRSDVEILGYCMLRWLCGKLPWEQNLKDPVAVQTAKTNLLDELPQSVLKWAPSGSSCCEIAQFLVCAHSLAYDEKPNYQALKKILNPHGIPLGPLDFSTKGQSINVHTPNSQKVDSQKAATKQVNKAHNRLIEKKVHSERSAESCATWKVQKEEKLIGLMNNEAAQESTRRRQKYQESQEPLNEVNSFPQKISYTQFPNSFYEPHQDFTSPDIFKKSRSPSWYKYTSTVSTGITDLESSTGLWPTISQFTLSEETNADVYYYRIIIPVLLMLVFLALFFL
Sequence of UniProt P21709 (whole entry, looked up): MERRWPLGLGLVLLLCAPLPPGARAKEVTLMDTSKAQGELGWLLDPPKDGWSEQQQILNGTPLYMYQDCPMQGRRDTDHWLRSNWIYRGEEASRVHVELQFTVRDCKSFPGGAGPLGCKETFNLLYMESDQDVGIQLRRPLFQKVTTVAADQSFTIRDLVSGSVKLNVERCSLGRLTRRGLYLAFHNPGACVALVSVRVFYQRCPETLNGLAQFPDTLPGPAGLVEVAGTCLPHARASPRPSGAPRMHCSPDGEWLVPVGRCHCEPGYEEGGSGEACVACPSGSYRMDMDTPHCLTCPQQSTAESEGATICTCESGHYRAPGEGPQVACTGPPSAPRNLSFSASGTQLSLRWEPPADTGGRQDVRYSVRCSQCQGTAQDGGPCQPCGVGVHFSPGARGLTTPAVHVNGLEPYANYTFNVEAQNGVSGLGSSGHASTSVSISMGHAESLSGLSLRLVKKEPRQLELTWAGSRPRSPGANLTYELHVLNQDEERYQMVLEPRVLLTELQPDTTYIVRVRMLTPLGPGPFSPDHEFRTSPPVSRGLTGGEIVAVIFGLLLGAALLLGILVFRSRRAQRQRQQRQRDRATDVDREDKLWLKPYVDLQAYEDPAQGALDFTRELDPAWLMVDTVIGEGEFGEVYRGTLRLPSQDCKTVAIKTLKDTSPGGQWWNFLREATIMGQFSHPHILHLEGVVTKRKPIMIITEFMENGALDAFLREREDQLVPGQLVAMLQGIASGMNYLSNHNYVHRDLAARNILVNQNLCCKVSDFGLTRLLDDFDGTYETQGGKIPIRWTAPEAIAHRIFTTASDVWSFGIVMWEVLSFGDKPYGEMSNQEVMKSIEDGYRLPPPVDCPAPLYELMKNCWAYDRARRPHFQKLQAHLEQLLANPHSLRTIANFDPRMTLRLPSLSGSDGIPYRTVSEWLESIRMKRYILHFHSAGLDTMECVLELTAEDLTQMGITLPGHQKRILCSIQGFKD

Block 1
Cell line: mouse MPNST tumor cells
Method: high-content nuclear imaging
Refers to: cell number
Tested at: 10 µM
Time: 12 h
Setting: mean of 2 replicates
Relative to: plate mean
Reading: higher = more cells
SMILES | nuclei count
NS(=O)(=O)c1cc2c(cc1C(F)(F)F)NCNS2(=O)=O | -0.839 z-score
Cc1ccc(S(=O)(=O)NCc2ccccc2)cc1 | 0.59 z-score
c1ccc2c(c1)SCc1c-2[nH]c2ccccc12 | -6.23 z-score
O=C(Nc1cc(-c2ccccc2)nn1-c1ccccc1)c1ccc([N+](=O)[O-])cc1 | 4.3 z-score
COc1ccc2nc3ccc(Cl)cc3c(SCCCN)c2c1 | -1.24 z-score
OCCN(CCO)c1nc(N2CCCCCCC2)c2nc(N(CCO)CCO)nc(N3CCCCCCC3)c2n1 | -1.87 z-score
N[C@@H]1CONC1=O | -0.566 z-score and -2.22 z-score
Oc1cc2c(cc1O)CN(C(=S)NCCc1ccc(Cl)cc1)CCC2 | -0.151 z-score
CN1CCCC(CC2c3ccccc3Sc3ccccc32)C1 (centres unmarked) | -5.08 z-score
CNC(=O)c1c(F)cccc1Nc1nc(Nc2cc3c(cc2OC)CCN3C(=O)CN(C)C)nc2[nH]ccc12 | -0.45 z-score
Oc1c(CN2CCCC2)cc(COCc2ccccc2)c2cccnc12 | -3.15 z-score
OC1C(CCl)OC(n2cnc3c(NC4CC5CCC4C5)ncnc32)C1O (centres unmarked) | 1.53 z-score
O=C(CCBr)N1CCN(C(=O)CCBr)CC1 | -0.0875 z-score
COCCN(C(=O)c1cc(OC)c(OC)c(OC)c1)c1nc(-c2ccccc2)cs1 | 1.22 z-score

Block 2
Cell line: HaCaT
Tested at: 100 µM
Time: 36 h
SMILES | viability [%]
CCOC(=O)[N-]c1cn(N2CCOCC2)n[o+]1 | 90.6
OC[C@@H](O)[C@@H](O)[C@H](O)[C@H](O)CO | 84.7
Cc1ccnc(NS(=O)(=O)c2ccc(N)cc2)n1 | 72.5
COc1cc([C@@H]2c3cc4c(cc3[C@@H](O[C@@H]3O[C@@H]5CO[C@@H](c6cccs6)O[C@H]5[C@H](O)[C@H]3O)[C@H]3COC(=O)[C@H]23)OCO4)cc(OC)c1O | 15.3
NC(=O)OCC(COC(N)=O)c1ccccc1 | 93.8
C=CC[C@@H]1/C=C(\C)C[C@H](C)C[C@H](OC)[C@H]2O[C@@](O)(C(=O)C(=O)N3CCCC[C@H]3C(=O)O[C@H](/C(C)=C/[C@@H]3CC[C@@H](O)[C@H](OC)C3)[C@H](C)[C@@H](O)CC1=O)[C@H](C)C[C@@H]2OC | 5.92
Cn1cc[nH]c1=S | 92.7
NC(=O)NO | 89.6
CCCCCCCC(=O)N[C@H](CN1CCCC1)[C@H](O)c1ccc2c(c1)OCCO2 | 12.8
CCCCCCCCCCCCCCCCCCCCCCO | 96
O=C(O[C@H]1CN2CCC1CC2)N1CCc2ccccc2[C@@H]1c1ccccc1 | 5.37
CCCCC1(COC(=O)CCC(=O)O)C(=O)N(c2ccccc2)N(c2ccccc2)C1=O | 91.5
C[C@]12C=CC(=O)C=C1CC[C@@H]1[C@@H]2[C@@H](O)C[C@@]2(C)[C@H]1CC[C@]2(O)C(=O)COP(=O)(O)O | 89
CC(N)[C@]12C[C@H]3C[C@H](C[C@H](C3)C1)C2 (some centres unmarked) | 56.8
Cc1ccc(C)c(OCCCC(C)(C)C(=O)O)c1 | 98.9
Cc1cccc(C)c1OCC(=O)N[C@@H](Cc1ccccc1)[C@@H](O)C[C@H](Cc1ccccc1)NC(=O)[C@H](C(C)C)N1CCCNC1=O | 15.7
C[C@]12C=CC(=O)C=C1CC[C@@H]1[C@@H]2C(=O)C[C@@]2(C)[C@H]1CC[C@]2(O)C(=O)CO | 112

Block 3
SMILES: CC(=O)Nc1c(C(C)=O)c(=O)n(C)c2nc(-c3ccc(Cl)cc3Cl)c(-c3ccc(Cl)cc3)cc12
Effect on: cell-free assay
Method: competition with immobilised ligand
Tested at: 1 µM
target | remaining binding [%]
FLT1 (Homo sapiens, UniProt P17948) | 100
DDR2 (Homo sapiens, UniProt Q16832) | 100
FLT3 (Homo sapiens, UniProt P36888) | 100
HIPK3 (Homo sapiens, UniProt Q9H422) | 97
EIF2AK2 (Homo sapiens, UniProt P19525) | 100
CAMK2D (Homo sapiens, UniProt Q13557) | 100
EPHA1 (Homo sapiens, UniProt P21709) | 100
MAP2K6 (Homo sapiens, UniProt P52564) | 100
STK39 (Homo sapiens, UniProt Q9UEW8) | 100
FLT3 (Homo sapiens, UniProt P36888, D835V) | 82
RIPK4 (Homo sapiens, UniProt P57078) | 93
NEK4 (Homo sapiens, UniProt P51957) | 100
EGFR (Homo sapiens, UniProt P00533, L858R/T790M) | 100
CDK14 (Homo sapiens, UniProt O94921) | 100
VRK2 (Homo sapiens, UniProt Q86Y07) | 100
FER (Homo sapiens, UniProt P16591) | 88
IRAK3 (Homo sapiens, UniProt Q9Y616) | 95

Block 4
Compound: COc1ccc(Cl)cc1NC(=O)Nc1cc(C)nc2ccccc12
Effect on: enzyme activity
Action: inhibitor
Tested at: 0.5 µM
Relative to: control
target | remaining activity [%]
TGFBR1 (Homo sapiens, UniProt P36897) | 99.1
cGMP-dependent protein kinase 1, isoform beta (PRKG1, Homo sapiens, UniProt Q13976) | 108
NEK2 (Homo sapiens, UniProt P51955) | 106
PRKACA (Homo sapiens, UniProt P17612) | 101
GRK3 (Homo sapiens, UniProt P35626) | 103
CAMK2D (Homo sapiens, UniProt Q13557) | 98.2
CHEK2 (Homo sapiens, UniProt O96017) | 101
DAPK2 (Homo sapiens, UniProt Q9UIK4) | 99.1
IKBKE (Homo sapiens, UniProt Q14164) | 107
STK11 (Homo sapiens, UniProt Q15831) | 103
PRKCA (Homo sapiens, UniProt P17252) | 132
Tyrosine-protein kinase Lyn, isoform B (LYN, Homo sapiens, UniProt P07948) | 99.2
CAMKK2 (Homo sapiens, UniProt Q96RR4) | 93.2
STK10 (Homo sapiens, UniProt O94804) | 90.9
MAPK9 (Homo sapiens, UniProt P45984) | 105
Cyclin-dependent kinase 5, with p25 (CDK5, Homo sapiens, UniProt Q00535) | 105
Cyclin-dependent kinase 4, with cyclin D1 (CDK4, Homo sapiens, UniProt P11802) | 98.8
Protein kinase C beta type, isoform beta-I (PRKCB, Homo sapiens, UniProt P05771) | 105
TGFBR2 (Homo sapiens, UniProt P37173) | 111
MAP3K3 (Homo sapiens, UniProt Q99759) | 111
DAPK1 (Homo sapiens, UniProt P53355) | 93.3
OXSR1 (Homo sapiens, UniProt O95747) | 101
STK39 (Homo sapiens, UniProt Q9UEW8) | 98.5

Repeated from above (block 3):
target | remaining binding [%]
DDR2 (Homo sapiens, UniProt Q16832) | 100
RIPK4 (Homo sapiens, UniProt P57078) | 93
CDK14 (Homo sapiens, UniProt O94921) | 100
HIPK3 (Homo sapiens, UniProt Q9H422) | 97
VRK2 (Homo sapiens, UniProt Q86Y07) | 100
MAP2K6 (Homo sapiens, UniProt P52564) | 100
EPHA1 (Homo sapiens, UniProt P21709) | 100
EGFR (Homo sapiens, UniProt P00533, L858R/T790M) | 100
NEK4 (Homo sapiens, UniProt P51957) | 100
